Measured values collected from several papers.
Each numbered part is a random draw from the data of one study; scales do not carry over between parts. Positions count from the first letter of the parent shown.

Series 1 — technique: DHFR PCA, deep sequencing; medium: yeast; with: (+)-ABA 0 µM; baseline: wild-type fitted maximum; reading: higher = stronger binding
Target: ABI1, truncated, D143A, DHFR fusion (Arabidopsis thaliana)
Setting: methotrexate growth selection, single substitutions
Parent: PYL1, truncated, DHFR fusion (Arabidopsis thaliana); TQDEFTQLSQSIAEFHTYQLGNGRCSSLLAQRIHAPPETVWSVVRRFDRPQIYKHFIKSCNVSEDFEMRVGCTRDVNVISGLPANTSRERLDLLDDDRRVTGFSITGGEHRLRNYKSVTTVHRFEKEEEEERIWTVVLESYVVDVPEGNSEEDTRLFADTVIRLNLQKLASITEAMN; partner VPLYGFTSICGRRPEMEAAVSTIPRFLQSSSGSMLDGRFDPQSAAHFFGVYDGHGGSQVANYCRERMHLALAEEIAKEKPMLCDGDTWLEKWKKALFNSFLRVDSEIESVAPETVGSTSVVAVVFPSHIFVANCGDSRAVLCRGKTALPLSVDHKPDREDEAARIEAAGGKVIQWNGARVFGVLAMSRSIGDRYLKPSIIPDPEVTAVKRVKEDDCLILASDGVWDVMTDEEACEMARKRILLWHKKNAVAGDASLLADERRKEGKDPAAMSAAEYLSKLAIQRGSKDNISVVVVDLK
Change | relative binding score [%]
G21R | 18.6
I33W | -2.47
S117A | 3.08
T39R | 14.2
A13H | 17.8
I12F | 3.28
C72M | 21.2
P83Q | 19.6
D96V | -4.65
F56G | -0.876
T101I | 69.7
E38A | 1.47
K168W | 14.4
G23S | 6.33
Q2P | 60
Q7H | 23

Series 2 — technique: RNA Bind-n-Seq; molecule type: RNA; medium: in vitro; concentration: 365 nM; baseline: no-protein control; reading: higher = stronger binding
Target: RNA binding protein fox-1 homolog 2, RRM domain, GST-SBP tag (RBFOX2, Homo sapiens, UniProt O43251-10, residues 100-194)
Setting: natural RNA segment, single round, ends assumed
All sequences stand within: GGGAGUUCUACAGUCCGACGAUC … UGGAAUUCUCGGGUGCCAA
Target sequence (chain): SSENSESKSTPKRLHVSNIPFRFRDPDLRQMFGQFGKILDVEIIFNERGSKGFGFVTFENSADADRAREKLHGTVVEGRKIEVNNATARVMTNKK
Oligonucleotide | RBNS enrichment (R)
ACAGAACCCAGGGCUUAAUGCGUGGCAGCUAAGCACUCUAUCAACUGAGUUACAUCUCCAUCCUGUAACUGAUCUUUGAGCUUGGUCAUCAGGCCCUUAAUUAUGGCAGA | 0.269
GUAUAUACAAUAAAAUUGCACCCUUUUUUAAACAAAACAAACUAAGCAAUAGUUUGGGCAGUUUUAGUUGUUUUUAGUGAGCAUGUUGUAGUCAUGACUGCAAAGAGAGA | 14.1
GGUUGGCUCUGGCCAGGAUUCCAGGCAGCAGGUUGGAGUGACUGGUGGGCCUAGAUCACUGGUGUGAUAAACCCCAAUUUUCACCCCGGGGGGGGUGGGGUACACAGACA | 0.5
CAACACUUUCAGCAGACUAGCCUCUCCUUAUCUCACAGAUCACAAGCACCCCUAGAUAGUGUGAUUCUGUCAGAUAGCAUUUAUGCAAAAAUCUAUGAAGUUAAAAGAUC | 0.701
ACCAAAAGCAUAAAAAACCACAGCAAAUUUCUUGAUGAAAAUUGAAAAUAAAAGUUUCCUUGUAUUUAGUGCUCUGGUUCAGUGUGGGUGUAGGUGCAGGUGGAUGAGUG | 0.858
ACUGUAUGUUUUGCAUUCCUAGAAGCAGGUUAACUGUGUUUUUAAAUUGUUAUAACCACACCUUUUUGAAAUCUGCCCUACAAAAUUUGUUUGGCUUAAACGUCAAAGCC | 0.42
ACUACUAACAUGGAGAGAAUGCCGUGUAUACCUCACGUACUGUGUGCUUUAUAUUUGUAUAUACAUUUUACCUUUUAUACAGAUGUCCGAUUGUUGUCAUUUGGCUCUGC | 1.03
ACUUGAAAACAUAGAUAGUUUAAUCUUGACUUGAAAAACACAAAAAUAAAUUCAGAAAAUGCUUUUAGCACAGUGUCUCUUUUUUAAAGUUUUGCCAAGUGUGGUUUUUA | 0.409

Series 3 — target: CCNB1, cyclin fold, Cln2 fusion (human); technique: yeast growth competition, sequencing; medium: yeast; setting: weak parent motif; baseline: not given; reading: higher = stronger binding
Parent: CDC6 docking peptide (human); TLKGRRLVFDNQL
Change | normalised enrichment score
TLIGRRLVFDNQL [K3I] | 1.11
TLKNRRLVFDNQL [G4N] | 0.431
TLPGRRLVFDNQL [K3P] | 0.0493
TLKGRRLLFDNQL [V8L] | 0.941
TLKGRRPVFDNQL [L7P] | -0.00885
TLKGIRLVFDNQL [R5I] | -0.331
TLKLRRLVFDNQL [G4L] | -0.278
TLKGRRLRFDNQL [V8R] | 0.708
TLKGRRLIFDNQL [V8I] | 0.425
TLKGWRLVFDNQL [R5W] | 0.203
TEKGRRLVFDNQL [L2E] | 0.372
TLKGRRLVFDNYL [Q12Y] | 0.0708
TLKGRRLGFDNQL [V8G] | 0.91
TLKGPRLVFDNQL [R5P] | -0.00256

Single results of other studies
Substance | target | assay | system | conditions | scale | quantity | value
PhoQ, residues 284 288 289 292 302 303 AMDMFI | PhoP, residues 12 14 15 18 19 LHHSG (Escherichia coli, UniProt P23836) | Sort-seq, refers to: YFP reporter | E. coli | PhoQ-PhoP variant library, with: 10 µM Mg2+ | baseline: high Mg2+ state, higher = stronger signaling | fold induction | 0.713

For quick reference, copied from above (single results of other studies):
Substance | target | assay | system | conditions | scale | quantity | value
PhoQ, residues 284 288 289 292 302 303 AMDMFI | PhoP, residues 12 14 15 18 19 LHHSG (Escherichia coli, UniProt P23836) | Sort-seq, refers to: YFP reporter | E. coli | PhoQ-PhoP variant library, with: 10 µM Mg2+ | baseline: high Mg2+ state, higher = stronger signaling | fold induction | 0.713
